Assay results from different studies.
Parts stem from different laboratories: compare values within a part only. ± gives the spread as reported.
Chain of UniProt Q9NYY3 (whole entry, looked up): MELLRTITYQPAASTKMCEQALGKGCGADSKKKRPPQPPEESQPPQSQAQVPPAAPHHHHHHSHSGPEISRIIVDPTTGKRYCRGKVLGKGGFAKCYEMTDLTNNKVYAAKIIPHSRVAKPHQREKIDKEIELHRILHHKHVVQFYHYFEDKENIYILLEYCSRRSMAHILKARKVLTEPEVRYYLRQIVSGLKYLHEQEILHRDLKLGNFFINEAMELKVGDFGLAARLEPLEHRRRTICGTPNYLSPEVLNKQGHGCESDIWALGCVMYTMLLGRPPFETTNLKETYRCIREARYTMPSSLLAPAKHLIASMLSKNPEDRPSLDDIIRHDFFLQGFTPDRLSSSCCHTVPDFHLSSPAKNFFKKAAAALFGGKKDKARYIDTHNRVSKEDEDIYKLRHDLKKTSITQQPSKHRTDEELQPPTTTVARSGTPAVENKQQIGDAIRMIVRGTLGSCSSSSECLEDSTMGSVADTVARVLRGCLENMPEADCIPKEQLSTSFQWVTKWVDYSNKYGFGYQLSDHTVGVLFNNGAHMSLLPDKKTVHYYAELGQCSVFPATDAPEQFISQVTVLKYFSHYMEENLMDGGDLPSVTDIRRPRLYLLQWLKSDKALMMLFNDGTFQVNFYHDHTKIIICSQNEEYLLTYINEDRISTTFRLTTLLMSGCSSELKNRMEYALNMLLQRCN
Chain of UniProt Q96BR1 (whole entry, looked up): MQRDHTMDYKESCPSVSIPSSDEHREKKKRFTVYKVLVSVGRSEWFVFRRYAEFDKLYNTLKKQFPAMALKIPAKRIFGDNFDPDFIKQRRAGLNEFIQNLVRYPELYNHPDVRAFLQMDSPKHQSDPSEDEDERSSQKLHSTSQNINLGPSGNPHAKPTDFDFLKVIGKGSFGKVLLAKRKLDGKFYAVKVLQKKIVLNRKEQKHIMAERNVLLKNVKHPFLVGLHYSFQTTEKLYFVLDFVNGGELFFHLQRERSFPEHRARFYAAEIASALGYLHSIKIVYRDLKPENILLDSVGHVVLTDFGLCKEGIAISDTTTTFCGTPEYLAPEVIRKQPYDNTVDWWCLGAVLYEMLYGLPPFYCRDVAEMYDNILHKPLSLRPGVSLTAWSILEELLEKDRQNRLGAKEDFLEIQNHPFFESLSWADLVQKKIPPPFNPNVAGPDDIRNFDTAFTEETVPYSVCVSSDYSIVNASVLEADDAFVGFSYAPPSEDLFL
Chain of UniProt Q9Y4K4 (whole entry, looked up): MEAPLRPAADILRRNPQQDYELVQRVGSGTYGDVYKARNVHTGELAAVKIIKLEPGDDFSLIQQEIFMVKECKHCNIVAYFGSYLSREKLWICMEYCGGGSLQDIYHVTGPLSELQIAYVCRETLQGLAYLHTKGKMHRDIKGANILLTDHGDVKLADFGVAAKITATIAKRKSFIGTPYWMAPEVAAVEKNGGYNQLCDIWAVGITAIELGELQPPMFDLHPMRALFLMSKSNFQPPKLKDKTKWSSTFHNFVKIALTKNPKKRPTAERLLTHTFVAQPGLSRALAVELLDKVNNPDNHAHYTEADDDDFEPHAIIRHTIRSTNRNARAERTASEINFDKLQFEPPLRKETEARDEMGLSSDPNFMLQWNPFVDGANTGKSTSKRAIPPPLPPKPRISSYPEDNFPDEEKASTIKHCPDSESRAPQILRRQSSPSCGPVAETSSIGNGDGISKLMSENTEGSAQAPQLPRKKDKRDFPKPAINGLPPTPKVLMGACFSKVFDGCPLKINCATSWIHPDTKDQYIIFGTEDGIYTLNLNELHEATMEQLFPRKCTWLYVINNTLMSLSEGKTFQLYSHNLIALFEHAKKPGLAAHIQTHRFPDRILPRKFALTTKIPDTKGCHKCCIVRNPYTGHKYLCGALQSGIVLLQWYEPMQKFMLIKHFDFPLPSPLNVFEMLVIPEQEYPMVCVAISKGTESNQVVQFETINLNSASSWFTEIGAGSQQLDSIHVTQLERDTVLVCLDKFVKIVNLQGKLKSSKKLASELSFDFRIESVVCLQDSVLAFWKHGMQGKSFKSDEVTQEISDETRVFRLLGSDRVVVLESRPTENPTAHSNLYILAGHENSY
Chain of UniProt Q9Y3S1 (whole entry, looked up): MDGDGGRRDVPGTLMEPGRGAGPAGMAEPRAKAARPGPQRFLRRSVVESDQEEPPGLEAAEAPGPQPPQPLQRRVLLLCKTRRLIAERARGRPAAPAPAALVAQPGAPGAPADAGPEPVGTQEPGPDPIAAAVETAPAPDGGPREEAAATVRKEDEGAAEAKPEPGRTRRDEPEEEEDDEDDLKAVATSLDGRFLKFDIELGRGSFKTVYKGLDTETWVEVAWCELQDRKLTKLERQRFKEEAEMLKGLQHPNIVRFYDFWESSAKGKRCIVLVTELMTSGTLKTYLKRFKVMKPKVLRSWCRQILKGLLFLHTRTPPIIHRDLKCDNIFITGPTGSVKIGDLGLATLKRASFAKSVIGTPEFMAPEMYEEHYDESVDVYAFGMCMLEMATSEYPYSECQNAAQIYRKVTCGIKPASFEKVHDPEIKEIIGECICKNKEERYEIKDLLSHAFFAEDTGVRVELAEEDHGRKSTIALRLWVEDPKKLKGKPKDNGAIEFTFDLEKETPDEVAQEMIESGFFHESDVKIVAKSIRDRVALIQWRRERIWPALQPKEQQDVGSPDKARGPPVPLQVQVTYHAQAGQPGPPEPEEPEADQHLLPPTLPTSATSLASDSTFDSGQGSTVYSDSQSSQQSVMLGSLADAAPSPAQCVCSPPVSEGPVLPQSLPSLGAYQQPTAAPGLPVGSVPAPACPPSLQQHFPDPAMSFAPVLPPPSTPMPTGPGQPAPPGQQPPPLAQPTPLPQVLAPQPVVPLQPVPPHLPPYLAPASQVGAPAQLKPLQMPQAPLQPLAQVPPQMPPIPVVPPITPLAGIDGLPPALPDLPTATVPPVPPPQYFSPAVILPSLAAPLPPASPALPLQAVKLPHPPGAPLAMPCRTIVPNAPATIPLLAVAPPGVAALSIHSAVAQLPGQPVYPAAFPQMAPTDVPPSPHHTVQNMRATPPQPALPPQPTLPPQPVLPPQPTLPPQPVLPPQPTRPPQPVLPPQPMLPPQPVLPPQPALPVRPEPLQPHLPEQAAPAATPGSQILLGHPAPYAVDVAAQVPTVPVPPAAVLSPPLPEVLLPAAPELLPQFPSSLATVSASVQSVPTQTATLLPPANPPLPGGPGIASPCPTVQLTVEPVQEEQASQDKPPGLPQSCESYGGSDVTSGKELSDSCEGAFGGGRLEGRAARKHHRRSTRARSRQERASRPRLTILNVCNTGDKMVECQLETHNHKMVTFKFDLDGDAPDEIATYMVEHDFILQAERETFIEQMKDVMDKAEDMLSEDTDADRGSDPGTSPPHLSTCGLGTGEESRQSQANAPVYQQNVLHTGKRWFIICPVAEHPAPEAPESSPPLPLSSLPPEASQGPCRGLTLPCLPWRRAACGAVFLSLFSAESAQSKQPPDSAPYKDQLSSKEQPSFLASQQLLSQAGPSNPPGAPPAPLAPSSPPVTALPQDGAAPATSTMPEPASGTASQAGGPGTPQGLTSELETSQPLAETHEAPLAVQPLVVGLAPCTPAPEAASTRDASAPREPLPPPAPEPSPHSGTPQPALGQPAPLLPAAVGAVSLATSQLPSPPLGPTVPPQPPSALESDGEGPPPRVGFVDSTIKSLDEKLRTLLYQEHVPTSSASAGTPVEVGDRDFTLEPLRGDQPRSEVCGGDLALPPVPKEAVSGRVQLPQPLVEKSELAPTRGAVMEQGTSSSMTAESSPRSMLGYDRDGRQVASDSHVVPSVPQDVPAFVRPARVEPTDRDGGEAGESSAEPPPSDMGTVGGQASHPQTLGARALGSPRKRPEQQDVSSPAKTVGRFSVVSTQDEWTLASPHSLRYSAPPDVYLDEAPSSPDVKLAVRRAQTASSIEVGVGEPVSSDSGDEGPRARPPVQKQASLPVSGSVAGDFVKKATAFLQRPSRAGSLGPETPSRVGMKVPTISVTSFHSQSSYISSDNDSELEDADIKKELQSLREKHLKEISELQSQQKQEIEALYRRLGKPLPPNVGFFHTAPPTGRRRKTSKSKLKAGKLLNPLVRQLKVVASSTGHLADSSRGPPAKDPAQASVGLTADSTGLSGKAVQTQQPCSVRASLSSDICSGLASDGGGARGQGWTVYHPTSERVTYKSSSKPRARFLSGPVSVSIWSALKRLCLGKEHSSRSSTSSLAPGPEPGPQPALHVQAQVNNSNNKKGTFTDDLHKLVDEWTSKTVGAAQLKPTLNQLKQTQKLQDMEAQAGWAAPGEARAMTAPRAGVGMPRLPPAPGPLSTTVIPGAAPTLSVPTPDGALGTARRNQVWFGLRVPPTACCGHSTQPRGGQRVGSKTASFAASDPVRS
Chain of UniProt Q06187 (whole entry, looked up): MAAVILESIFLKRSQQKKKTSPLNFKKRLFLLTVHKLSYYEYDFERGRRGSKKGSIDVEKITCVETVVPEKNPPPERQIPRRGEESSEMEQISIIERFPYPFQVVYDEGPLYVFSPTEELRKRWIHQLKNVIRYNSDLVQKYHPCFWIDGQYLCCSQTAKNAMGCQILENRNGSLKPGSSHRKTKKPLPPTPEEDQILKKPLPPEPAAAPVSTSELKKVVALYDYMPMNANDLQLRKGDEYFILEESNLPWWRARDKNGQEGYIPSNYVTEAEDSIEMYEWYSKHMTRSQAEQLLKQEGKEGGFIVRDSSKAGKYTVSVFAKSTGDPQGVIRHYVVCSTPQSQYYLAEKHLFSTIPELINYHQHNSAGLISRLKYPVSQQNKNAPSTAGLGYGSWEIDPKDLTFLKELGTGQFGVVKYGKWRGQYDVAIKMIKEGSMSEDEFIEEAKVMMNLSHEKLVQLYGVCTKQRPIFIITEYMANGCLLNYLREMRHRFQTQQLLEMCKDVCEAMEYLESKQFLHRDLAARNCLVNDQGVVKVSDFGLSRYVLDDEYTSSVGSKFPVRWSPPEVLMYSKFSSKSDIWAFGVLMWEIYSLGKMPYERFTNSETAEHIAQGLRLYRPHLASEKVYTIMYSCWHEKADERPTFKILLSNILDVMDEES

Sample 1
Structure (SMILES): COc1cc(C(=O)N2CCC(N3CCN(C)CC3)CC2)ccc1Nc1ncc2c(n1)N(C)c1ccccc1C(=O)N2C
Endpoint: remaining activity
MST2; kinase activity; 1 µM: 100 ± 12%
PIM3; kinase activity; 1 µM: 97 ± 1%
PKA; kinase activity; 1 µM: 79 ± 5%
PRK2; kinase activity; 10 µM: 80 ± 9%
MARK2; kinase activity; 1 µM: 62 ± 6%
EPH-B2; kinase activity; 10 µM: 93 ± 11%
MELK; kinase activity; 1 µM: 88 ± 8%
p38b MAPK; kinase activity; 1 µM: 73 ± 2%
EPH-A4; kinase activity; 1 µM: 88 ± 2%
PLK1 (Homo sapiens, UniProt P53350); 10 µM: 35 ± 3%

Sample 2
Structure (SMILES): Nc1cnc(N2CCc3cc(S(=O)(=O)Nc4c(F)cc(Cl)cc4F)cc(N4CCCC4=O)c32)nc1
Read-out: cell-free assay
Method: competition with immobilised ligand
Concentration: 1 µM
Endpoint: remaining binding
MAP4K5 (Homo sapiens, UniProt Q9Y4K4): 73%
TXK (Homo sapiens, UniProt P42681): 83%
SNRK (Homo sapiens, UniProt Q9NRH2): 100%
PLK2 (Homo sapiens, UniProt Q9NYY3): 100%
NEK10 (Homo sapiens, UniProt Q6ZWH5): 100%
DDR1 (Homo sapiens, UniProt Q08345): 100%
HIPK2 (Homo sapiens, UniProt Q9H2X6): 100%
ERBB3 (Homo sapiens, UniProt P21860): 100%
Tyrosine-protein kinase ABL1, non-phosphorylated (ABL1, Homo sapiens, UniProt P00519, H396P): 94%
FGFR2 (Homo sapiens, UniProt P21802): 100%
FGFR4 (Homo sapiens, UniProt P22455): 100%
MET (Homo sapiens, UniProt P08581): 69%
SGK3 (Homo sapiens, UniProt Q96BR1): 100%
SBK3 (Homo sapiens, UniProt P0C264): 100%

Sample 3
Species: human
Sample: microsomes or S9
Concentration: 2 µM
Time: 0.5 h
Endpoint: remaining compound
c1ccc2c(c1)n(CCN1CCCC1)c1nc(-c3ccc4c(c3)OCO4)cn21: 15.1%
Cc1ccc2cc(CNCC3COCCO3)c3nnnn3c2c1 (stereo not shown): 86.1%
CCN(CC)c1ccc(-c2nnc(-c3ccc(N(CC)CC)cc3)o2)cc1: 9.12%
Clc1cccc(C(c2ccccc2)N2CCN(c3nn4nnnc4c4ccccc34)CC2)c1 (stereo not shown): 89.9%
CN(C[C@@H]1C[C@H](F)CN1Cc1cncnc1)c1cnc(C#N)cn1: 95.5%
O=C(COc1ccccc1-c1nnc[nH]1)N1CCc2ccccc21: 97.4%
CCc1nnc(S(=O)(=O)C(C)C(=O)NCC2CCCCC2)[nH]1 (stereo not shown): > 100%
COc1cc2c(c(OC)c1OC)-c1c(cc(OC)c(OC)c1OC)C[C@](C)(O)[C@@H](C)C2: 99.5%
COC(c1ccc(Cl)cc1)(c1ccc(Cl)cc1)C(Oc1nccc(C)n1)C(=O)O (stereo not shown): 63%
CC(C)COc1cc(=O)n2c(c1C(=O)NCCCN1CCCCC1)CCCCC2: 92.9%
CC(C)c1c(Cl)nc(N(C)C)nc1N1CCN(S(C)(=O)=O)CC1: 18.6%
Cc1nc(-c2ccccc2C)n(CC(O)c2ccccc2)n1 (stereo not shown): 46.5%
CC(C)c1nc(COc2ccccc2-c2ccnc(N)n2)no1: 7.4%
O=C(Nc1ccc2c(c1)C(=O)N1CCC[C@H]1C(=O)N2)c1cc(-c2ccc3c(c2)CCO3)n[nH]1: 59.6%
Cc1cccc(NC(=O)NC(C)c2n[nH]c(=O)n2C)n1 (stereo not shown): > 100%
Clc1ncccc1-c1nc2ccccc2c2c(Br)cnn12: 23.5%
NC(=O)N1CCc2cc(NS(=O)(=O)c3cc(F)ccc3F)ccc21: > 100%
O=C(Cc1noc2ccccc12)N1CCn2c1nc1ccccc12: 64.1%
Cc1ccc2cc(CN(CCO)S(=O)(=O)c3ccc(C(C)(C)C)cc3)c(=O)[nH]c2c1C: > 100%

Sample 4
Structure (SMILES): CN1CCN(c2ccc3nc(-c4c(N)c5c(F)cccc5[nH]c4=O)[nH]c3c2)CC1
Read-out: enzyme activity
Action: inhibitor
Concentration: 0.5 µM
Baseline: control
Endpoint: remaining activity
BTK (Homo sapiens, UniProt Q06187): 37.3%
STK38 (Homo sapiens, UniProt Q15208): 97.1%
MAPK12 (Homo sapiens, UniProt P53778): 101%
NEK4 (Homo sapiens, UniProt P51957): 83.6%
EPHA5 (Homo sapiens, UniProt P54756): 99.1%
Cyclin-dependent kinase 9, with cyclin T1 (CDK9, Homo sapiens, UniProt P50750): 97.7%
PRKG1 (Homo sapiens, UniProt Q13976): 81.2%
PLK2 (Homo sapiens, UniProt Q9NYY3): 102%
MAP4K2 (Homo sapiens, UniProt Q12851): 49.4%
CHEK1 (Homo sapiens, UniProt O14757): 30.8%
WNK2 (Homo sapiens, UniProt Q9Y3S1): 99.9%
MAP2K6 (Homo sapiens, UniProt P52564): 82.6%
